Experimental data collected from several papers.
Each numbered part is a random draw from the data of one study; scales do not carry over between parts.

Study 1
Target: RNA binding protein fox-1 homolog 2, RRM domain, GST-SBP tag (RBFOX2, Homo sapiens, UniProt O43251-10, residues 100-194)
Technique: RNA Bind-n-Seq
Molecule type: RNA
Sample: in vitro
Tested at: 365 nM
Notes: natural RNA segment, single round, ends assumed
Relative to: no-protein control
Reading: higher = stronger binding
Shared flanks, not repeated: GGGAGUUCUACAGUCCGACGAUC … UGGAAUUCUCGGGUGCCAA
Residues (chain): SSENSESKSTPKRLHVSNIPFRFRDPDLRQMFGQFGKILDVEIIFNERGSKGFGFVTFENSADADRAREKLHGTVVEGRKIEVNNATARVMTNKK
`AAUCUCAAAAGUUAAGCUGAAUUUCACACCAGAUCCUACCCCUUUCCCUGAGCCACAUGUUUCACACAAGUGUAGAAAAUGCCAGGGAUCCACCACAAGAUGGAGAUGGU` — result for “RBNS enrichment (R)”: 0.563.
`CCCACAGGGCCUUAGAGUCAGAGGUAAGGUAGCAACAGAGCUAGAAUGGGGCAAUGCACUCUUACCCUCCUUCUCAACUUUUAUUUAAGCUGUGCUAAAUGUUUUCUUCA` — result for “RBNS enrichment (R)”: 1.15.
Under “RBNS enrichment (R)”, `GAAUGUAAUUUAUUGGGGCACCCUCUGCUGCUUCCCUGACUCCCUGCCCUACCUAAUUGCACUUCCAGUCCUGUCUGUCCACAUAUGUACGUGUAUAUAAUUAUACAUAU` is recorded as 1.09.
`CCUCCUUUGGCUUGUGGGAUCCUUUUUCUCUAAUAUCUGUCUUUCUUUUUUUAGUUGAUCUUUCCACCCACUCCCCUUUCUCCUCUUCUCCACUGAGAAUAAUCUCCCUG` — result for “RBNS enrichment (R)”: 1.14.
`GAUUCUGAGGAUUUGUUUAACUAAAAAGUUCCCAAACACAGAAAGGGCCUCCCCACCUGCUUUGGGGAGCUGUCUGUGCUGGGAGUGCCAGGCAUCCCAUGGGACCCAUC` — result for “RBNS enrichment (R)”: 0.169.
`AGAAAAAAAUUAAGAAAUUGCUCAAGGGAAACAUUUGUAAAUGGAUUUGAAAGAUUGAGCCAAAUUCUGUUGUCAGUUCUAAGCAUGCAGUUCUCACCUCCAUUUAGUCC` — result for “RBNS enrichment (R)”: 19.
`AAUUGUGUUCCCUUGCCCUGAGCAGUCCUUAGACUCAGGGCUUGAAGGUCUGUGGUGUCUCUGUCCGAUGGAGCAGUCUUAAAGCUUUAGUCAGCACAGGCCUAGCAAGG` — result for “RBNS enrichment (R)”: 0.252.
`AGGGUGGUGAGACCCUUCCUGGCUCCCCUGCUUUGUGAGUUAGGCGUGCUGGGGCACCCUCCUGGCCAGGUGGUACUUUGGGGACUUGGGUGUUUGCAUCAUAAUGUCAU`: “RBNS enrichment (R)” 0.563.
`GGUACAAAGAGGUCUGUCAUCUUCCCCCUGGGAUAUAAGAUGAUCUAGCUCCCGGUAGAGGAUCACCGGUGACAACUAUAGCAGUUGUAUUGUGUAACAAGUACUGCUCC`: “RBNS enrichment (R)” 0.295.
`GGCUCCCUCCUCAGCCUCCUGCCCACCCAGGGCCCUUUACUCUCUUCUCCCUCCAGACCUUCCUCUGACCCUUGCUGAACUGGGGUCCCUUUGUGAGUGUCUCAGUCUAG` — result for “RBNS enrichment (R)”: 0.764.
Under “RBNS enrichment (R)”, `UCCUGUAACCUAGCCUGUAUUAUACAAGAAAACUUGAGCAGGACAUUUCAAGAGAAUAUGUUGGCCUAAUUGUUGGGUUGGCUGGGACCUGCUCUGAAGGGAUCCCUCAG` is recorded as 0.438.
Under “RBNS enrichment (R)”, `CUAUGGUCUAAUGUUCAAAGAUAUGGGUGGACAGGACUGUGGAAGAUGGACAUGAUAAACCAGUUCUCAGUAGGAGGAAGUAGGACCUUCGAGAGUGGGAGUCUGGUACA` is recorded as 0.823.

Study 2
Target: Centromere-binding protein 1, full length, His-tagged (CBF1, Saccharomyces cerevisiae, UniProt P17106, residues 1-351)
Sequence of UniProt P17106 (whole entry, looked up): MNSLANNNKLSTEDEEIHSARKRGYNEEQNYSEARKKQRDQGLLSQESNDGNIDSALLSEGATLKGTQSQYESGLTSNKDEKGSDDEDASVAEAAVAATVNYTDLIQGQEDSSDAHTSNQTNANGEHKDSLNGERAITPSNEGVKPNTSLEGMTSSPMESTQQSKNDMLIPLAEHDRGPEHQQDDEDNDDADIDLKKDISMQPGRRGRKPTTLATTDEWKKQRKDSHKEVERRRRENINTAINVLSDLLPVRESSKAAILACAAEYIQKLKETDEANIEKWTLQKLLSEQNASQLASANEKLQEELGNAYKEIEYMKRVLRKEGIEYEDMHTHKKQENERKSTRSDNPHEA
Technique: competition protein-binding microarray
Molecule type: double-stranded DNA, one strand shown
Sample: in vitro
Tested at: 2 µM
Notes: whole 60-bp probe, lowest competitor level
Added: Pho4 competitor, 0.05 µM
Reading: higher = stronger binding
Shared flanks, not repeated: … GTCTTGATTCGCTTGACGCTGCTG
`ATATTTCAGCTCCATCACGTGCTTTCAAAGGTACTT` has a fluorescence intensity of 4060 a.u.
The fluorescence intensity of `ACTTTGCAAAAAAAGCACGCAGCAGGAAGCTCTTGA` is reported as 66.3 a.u.
For `AAGAAGCCATTAGAGCTCGTGCCAGGGAACTAGAAG`, the fluorescence intensity was 85.3 a.u.
`TGCGCAACAACTTTTCACGTGAATTTATGTCTAGAA` gave a fluorescence intensity of 991 a.u.
With `GCCAGGGTGCGCTGGCACGCAGGGTAAGAGCCGCAA` the fluorescence intensity was 54 a.u.
`CGTCCTAGTGATTTTCACGTGCCGTCCATGAGGAAG` has a fluorescence intensity of 1200 a.u.
The fluorescence intensity of `CAGCCCAGGTCCAATGTCGTGCAAAACGCAGATCCT` is reported as 58.9 a.u.
For `AAGGATACACAAAGGCAGGTGATTCCTGACTACCAA`, the fluorescence intensity was 119 a.u.
`CTTCTGTAAATTTGTAACGTGGGTGGACGCGCCCCG` has a fluorescence intensity of 86.2 a.u.

Study 3
Target: Histone acetyltransferase KAT6A, both winged helices, GST fusion (KAT6A, Homo sapiens, UniProt Q92794, residues 1-181)
Technique: protein binding microarray
Molecule type: double-stranded DNA, one strand shown
Sample: in vitro
Tested at: not given
Notes: 8-mer, flanks averaged, mean of 2 arrays, mostly near background
Relative to: not given
Reading: higher = stronger binding
Residues (chain): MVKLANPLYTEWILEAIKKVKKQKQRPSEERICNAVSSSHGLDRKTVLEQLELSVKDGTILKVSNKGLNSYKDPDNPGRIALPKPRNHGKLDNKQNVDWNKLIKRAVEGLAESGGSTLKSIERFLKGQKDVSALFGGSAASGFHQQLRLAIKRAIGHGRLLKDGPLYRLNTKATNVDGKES
For `ACGCCGAT`, the E-score was 0.271.
With `CACGGCTC` the E-score was 0.173.
The E-score of `ACCGAGTA` is reported as 0.131.
With `CGGTTTAC` the E-score was 0.242.
With `CCTTAGTA` the E-score was -0.0629.
With `AGATGAGC` the E-score was -0.0433.
`TAGTTCGA` has an E-score of -0.129.
The E-score of `CATGATCA` is reported as -0.00487.
With `GCGGATAC` the E-score was 0.266.
The E-score of `ACTCGCGG` is reported as 0.275.
For `AGTGAGGG`, the E-score was -0.121.
`CCAGGCGA` has an E-score of -0.155.
`CGGTCAAG` has an E-score of 0.154.
`GAAGGACC` has an E-score of -0.0112.
The E-score of `GCCCAGAC` is reported as -0.192.

Further values, each from its own experiment
`PhoQ, residues 284 288 289 292 302 303 NSMLDC` has a fold induction of 7.34 (PhoP, residues 12 14 15 18 19 QWHVF (Escherichia coli, UniProt P23836); Sort-seq, refers to: YFP reporter; E. coli; PhoQ-PhoP variant library, added: 10 µM Mg2+; relative to: high Mg2+ state, higher = stronger signaling).

A few entries again (study 1):
`GAUUCUGAGGAUUUGUUUAACUAAAAAGUUCCCAAACACAGAAAGGGCCUCCCCACCUGCUUUGGGGAGCUGUCUGUGCUGGGAGUGCCAGGCAUCCCAUGGGACCCAUC` — result for “RBNS enrichment (R)”: 0.169.
`CCUCCUUUGGCUUGUGGGAUCCUUUUUCUCUAAUAUCUGUCUUUCUUUUUUUAGUUGAUCUUUCCACCCACUCCCCUUUCUCCUCUUCUCCACUGAGAAUAAUCUCCCUG` — result for “RBNS enrichment (R)”: 1.14.
`AAUCUCAAAAGUUAAGCUGAAUUUCACACCAGAUCCUACCCCUUUCCCUGAGCCACAUGUUUCACACAAGUGUAGAAAAUGCCAGGGAUCCACCACAAGAUGGAGAUGGU` — result for “RBNS enrichment (R)”: 0.563.
